Assay results from different studies.
Every numbered part comes from another study and shows a few of its results, in no order. Substitutions count along the parent as printed.
Sequence of UniProt P37173 (whole entry, looked up): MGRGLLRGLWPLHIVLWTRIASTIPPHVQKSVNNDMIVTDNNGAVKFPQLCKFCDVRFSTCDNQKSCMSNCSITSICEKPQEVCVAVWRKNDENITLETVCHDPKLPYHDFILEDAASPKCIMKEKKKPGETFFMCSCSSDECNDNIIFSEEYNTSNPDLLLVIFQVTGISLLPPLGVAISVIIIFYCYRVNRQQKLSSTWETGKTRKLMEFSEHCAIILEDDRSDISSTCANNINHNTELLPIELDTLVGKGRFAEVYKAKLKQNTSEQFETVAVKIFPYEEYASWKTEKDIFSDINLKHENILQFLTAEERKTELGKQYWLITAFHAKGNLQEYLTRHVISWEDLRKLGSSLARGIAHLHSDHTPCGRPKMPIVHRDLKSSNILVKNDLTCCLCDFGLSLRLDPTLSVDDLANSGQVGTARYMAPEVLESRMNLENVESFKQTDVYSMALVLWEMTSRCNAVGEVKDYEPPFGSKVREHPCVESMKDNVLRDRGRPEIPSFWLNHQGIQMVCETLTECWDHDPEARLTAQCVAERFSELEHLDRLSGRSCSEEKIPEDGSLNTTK
Sequence of UniProt O96017 (whole entry, looked up): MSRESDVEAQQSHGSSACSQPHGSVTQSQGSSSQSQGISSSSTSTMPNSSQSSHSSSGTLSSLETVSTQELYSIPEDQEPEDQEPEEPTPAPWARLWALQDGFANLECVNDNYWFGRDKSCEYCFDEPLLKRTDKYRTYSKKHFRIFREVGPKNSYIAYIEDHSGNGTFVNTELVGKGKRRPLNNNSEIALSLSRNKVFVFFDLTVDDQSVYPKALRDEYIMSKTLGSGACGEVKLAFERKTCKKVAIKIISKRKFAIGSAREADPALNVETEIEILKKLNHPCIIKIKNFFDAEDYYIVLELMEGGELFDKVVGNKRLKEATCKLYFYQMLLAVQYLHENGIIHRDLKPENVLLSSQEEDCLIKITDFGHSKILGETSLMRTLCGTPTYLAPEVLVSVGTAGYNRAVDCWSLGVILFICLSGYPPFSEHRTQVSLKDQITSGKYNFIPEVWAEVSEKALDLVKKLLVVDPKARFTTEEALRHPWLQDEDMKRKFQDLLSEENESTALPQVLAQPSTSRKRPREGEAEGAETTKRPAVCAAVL
Sequence of UniProt P07948 (whole entry, looked up): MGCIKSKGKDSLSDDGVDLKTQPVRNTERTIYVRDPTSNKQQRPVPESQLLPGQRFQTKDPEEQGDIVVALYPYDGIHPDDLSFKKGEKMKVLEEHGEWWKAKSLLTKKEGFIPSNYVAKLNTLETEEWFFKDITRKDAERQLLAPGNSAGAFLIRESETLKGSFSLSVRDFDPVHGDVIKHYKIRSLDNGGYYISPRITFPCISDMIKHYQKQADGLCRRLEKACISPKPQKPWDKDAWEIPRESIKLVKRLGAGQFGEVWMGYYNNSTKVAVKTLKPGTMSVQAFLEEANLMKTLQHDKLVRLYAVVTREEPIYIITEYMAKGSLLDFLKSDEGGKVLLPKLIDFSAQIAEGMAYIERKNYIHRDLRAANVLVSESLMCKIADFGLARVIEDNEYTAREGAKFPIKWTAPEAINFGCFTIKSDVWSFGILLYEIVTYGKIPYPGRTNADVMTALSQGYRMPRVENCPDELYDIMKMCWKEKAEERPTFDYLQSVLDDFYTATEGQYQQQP
Sequence of UniProt P05771 (whole entry, looked up): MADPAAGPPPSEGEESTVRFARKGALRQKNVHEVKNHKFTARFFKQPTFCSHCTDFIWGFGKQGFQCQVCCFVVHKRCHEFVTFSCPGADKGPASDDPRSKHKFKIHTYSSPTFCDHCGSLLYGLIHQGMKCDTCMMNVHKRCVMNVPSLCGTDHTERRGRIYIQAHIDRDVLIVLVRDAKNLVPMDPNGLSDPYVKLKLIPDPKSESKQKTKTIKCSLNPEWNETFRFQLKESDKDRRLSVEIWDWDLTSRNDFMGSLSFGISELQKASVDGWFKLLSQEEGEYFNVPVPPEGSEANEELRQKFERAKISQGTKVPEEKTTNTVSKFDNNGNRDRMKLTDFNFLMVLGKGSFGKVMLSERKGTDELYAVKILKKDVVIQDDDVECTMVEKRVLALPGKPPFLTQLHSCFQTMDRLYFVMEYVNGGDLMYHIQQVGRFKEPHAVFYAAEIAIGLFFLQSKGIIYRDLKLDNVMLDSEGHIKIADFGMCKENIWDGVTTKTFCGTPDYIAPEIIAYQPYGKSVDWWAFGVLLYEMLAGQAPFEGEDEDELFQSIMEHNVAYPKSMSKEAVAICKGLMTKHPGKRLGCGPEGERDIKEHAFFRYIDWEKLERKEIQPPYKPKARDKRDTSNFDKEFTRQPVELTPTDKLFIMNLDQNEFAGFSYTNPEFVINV
Sequence of UniProt P36897 (whole entry, looked up): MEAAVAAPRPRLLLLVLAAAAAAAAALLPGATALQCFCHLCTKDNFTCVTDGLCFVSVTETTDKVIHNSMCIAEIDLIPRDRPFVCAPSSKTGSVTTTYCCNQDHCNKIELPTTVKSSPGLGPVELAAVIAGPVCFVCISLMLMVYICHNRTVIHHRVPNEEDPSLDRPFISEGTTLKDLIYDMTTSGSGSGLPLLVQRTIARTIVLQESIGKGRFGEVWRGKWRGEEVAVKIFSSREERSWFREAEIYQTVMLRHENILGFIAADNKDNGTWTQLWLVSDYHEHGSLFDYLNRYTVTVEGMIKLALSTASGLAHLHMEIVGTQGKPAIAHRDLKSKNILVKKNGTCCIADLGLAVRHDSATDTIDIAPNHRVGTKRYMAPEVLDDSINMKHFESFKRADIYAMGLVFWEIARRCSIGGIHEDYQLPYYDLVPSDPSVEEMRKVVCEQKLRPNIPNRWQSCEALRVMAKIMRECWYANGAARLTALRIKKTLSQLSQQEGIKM
Sequence of UniProt O14920 (whole entry, looked up): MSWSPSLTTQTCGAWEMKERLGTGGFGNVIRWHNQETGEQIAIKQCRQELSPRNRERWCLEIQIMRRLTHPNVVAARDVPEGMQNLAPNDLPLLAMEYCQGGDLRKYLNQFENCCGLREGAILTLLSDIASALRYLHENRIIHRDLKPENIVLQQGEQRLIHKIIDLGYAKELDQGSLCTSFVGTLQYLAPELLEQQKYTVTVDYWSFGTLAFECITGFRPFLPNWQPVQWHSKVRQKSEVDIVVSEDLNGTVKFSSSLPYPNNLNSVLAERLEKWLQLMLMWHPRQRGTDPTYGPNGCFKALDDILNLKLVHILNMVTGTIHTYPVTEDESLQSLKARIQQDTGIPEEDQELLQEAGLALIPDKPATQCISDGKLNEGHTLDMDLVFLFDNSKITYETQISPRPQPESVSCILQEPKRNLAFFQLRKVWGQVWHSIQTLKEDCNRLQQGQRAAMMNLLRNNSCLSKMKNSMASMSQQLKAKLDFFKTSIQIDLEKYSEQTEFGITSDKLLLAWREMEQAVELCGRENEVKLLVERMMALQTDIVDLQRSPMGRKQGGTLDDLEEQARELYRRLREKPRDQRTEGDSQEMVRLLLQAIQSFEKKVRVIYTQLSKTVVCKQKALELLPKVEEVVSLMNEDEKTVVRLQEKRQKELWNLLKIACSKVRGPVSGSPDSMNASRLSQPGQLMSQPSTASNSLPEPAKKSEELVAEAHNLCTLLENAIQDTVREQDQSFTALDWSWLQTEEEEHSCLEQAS
Sequence of UniProt P41595 (whole entry, looked up): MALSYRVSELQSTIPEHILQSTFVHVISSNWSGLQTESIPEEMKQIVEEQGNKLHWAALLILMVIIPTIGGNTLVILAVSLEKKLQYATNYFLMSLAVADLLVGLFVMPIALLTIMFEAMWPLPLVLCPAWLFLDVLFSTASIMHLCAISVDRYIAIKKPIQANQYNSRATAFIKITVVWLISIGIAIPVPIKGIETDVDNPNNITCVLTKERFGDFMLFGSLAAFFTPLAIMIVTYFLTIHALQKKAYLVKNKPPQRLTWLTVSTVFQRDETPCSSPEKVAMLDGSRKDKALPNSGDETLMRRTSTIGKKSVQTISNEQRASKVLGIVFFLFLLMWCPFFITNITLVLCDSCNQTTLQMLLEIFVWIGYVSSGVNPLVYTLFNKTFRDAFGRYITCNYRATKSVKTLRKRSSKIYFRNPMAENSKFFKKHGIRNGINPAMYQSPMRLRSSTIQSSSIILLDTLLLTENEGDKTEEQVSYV

Sample 1
Target: FOSL1, bZIP domain (human)
Technique: DHFR protein complementation
Matrix: yeast
Notes: single substitutions, most at no-binding floor
Reference: wild-type JUN-FOS pair
Reading: higher = stronger binding
Parent: JUN, bZIP domain (human); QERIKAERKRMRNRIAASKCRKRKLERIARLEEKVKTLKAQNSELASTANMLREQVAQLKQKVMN; partner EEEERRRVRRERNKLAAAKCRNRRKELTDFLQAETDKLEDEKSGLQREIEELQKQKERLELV
| Change | binding fitness [natural log] |
| --- | --- |
| A29Q | -0.498 |
| R30M | -0.273 |
| A46W | -0.733 |
| S43F | -0.466 |
| T37H | -0.302 |
| L52F | -1.22 |
| A49T | -1.19 |
| M51A | -0.286 |

Sample 2
Compound: CS(=O)(=O)CCNCc1ccc(-c2ccc3ncnc(Nc4ccc(OCc5cccc(F)c5)c(Cl)c4)c3c2)o1
Observed: enzyme activity
Action: inhibitor
Tested at: 0.5 µM
Reference: control
| target | remaining activity |
| --- | --- |
| STK39 (Homo sapiens, UniProt Q9UEW8) | 100% |
| Tyrosine-protein kinase Lyn, isoform B (LYN, Homo sapiens, UniProt P07948) | 103% |
| TGFBR1 (Homo sapiens, UniProt P36897) | 101% |
| PRKACA (Homo sapiens, UniProt P17612) | 96% |
| TGFBR2 (Homo sapiens, UniProt P37173) | 96.1% |
| CHEK2 (Homo sapiens, UniProt O96017) | 96.8% |
| IKBKB (Homo sapiens, UniProt O14920) | 81% |
| CAMK2D (Homo sapiens, UniProt Q13557) | 92.5% |
| PRKCA (Homo sapiens, UniProt P17252) | 83% |
| Protein kinase C beta type, isoform beta-I (PRKCB, Homo sapiens, UniProt P05771) | 93.5% |

Further values, each from its own experiment
| SMILES | target | test | setting | endpoint | value |
| --- | --- | --- | --- | --- | --- |
| O=C(Nc1cccnn1)N1CCC(=Cc2cccc(Oc3ccc(C(F)(F)F)cn3)c2)CC1 | HTR2B (Homo sapiens, UniProt P41595) | binding, radioligand binding | 10 µM | inhibition | 55.7% |
| CN1CCC[C@H]1COc1nc2c(c(N3CCN(S(C)(=O)=O)[C@@H](CC#N)C3)n1)CCN(c1cccc3cccc(Cl)c13)C2 | GTPase KRas (KRAS, Homo sapiens, UniProt P01116, Q61H) | target engagement in cells, BRET |  | IC50 | 840 nM |

Excerpt of the above (sample 2):
| target | remaining activity |
| --- | --- |
| TGFBR1 (Homo sapiens, UniProt P36897) | 101% |
| TGFBR2 (Homo sapiens, UniProt P37173) | 96.1% |
| STK39 (Homo sapiens, UniProt Q9UEW8) | 100% |
